Assay results from different studies.
Numbered parts are unrelated; each lists some results of a single study.

Series 1 — method: aptamer microarray, sandwich; form: DNA with 2'F-ANA; matrix: in vitro; concentration: 200 nM; together with: Cy3 exosite-II aptamer, 400 nM; reading: higher = stronger binding; strand: GGTTGGTGTGGTTGG
Target: Prothrombin, mature alpha-thrombin (F2, Homo sapiens, UniProt P00734)
Notes: whole 15-mer aptamer, many near background
`2'F-ANA at 1 3 4 7 8 9 11 12` — result for “mean fluorescence intensity”: 349 a.u.
`2'F-ANA at 2 3 6 9 10 11 12 14`: “mean fluorescence intensity” 250 a.u.
`2'F-ANA at 1 2 3 5 6 7 8 9 12 13 14`: “mean fluorescence intensity” 55.5 a.u.
Under “mean fluorescence intensity”, `2'F-ANA at 3 6 8 10 11 12 14 15` is recorded as 323 a.u.
`2'F-ANA at 2 4 5 6 7 9 10 11 12 13`: “mean fluorescence intensity” 69.4 a.u.
`2'F-ANA at 1 3 6 7 8 10 12 13`: “mean fluorescence intensity” 149 a.u.
Under “mean fluorescence intensity”, `2'F-ANA at 4 6 8 10` is recorded as 89.5 a.u.
Under “mean fluorescence intensity”, `2'F-ANA at 1 3 5 6 11 14 15` is recorded as 48.4 a.u.
Under “mean fluorescence intensity”, `2'F-ANA at 6 8 9 11 12` is recorded as 687 a.u.
For `2'F-ANA at 2 4 5 6 7 10 13 14`, “mean fluorescence intensity” read 55.8 a.u.
Under “mean fluorescence intensity”, `2'F-ANA at 1 2 5 9 12 15` is recorded as 105 a.u.
For `2'F-ANA at 1 2 4 7 9 10 13 14`, “mean fluorescence intensity” read 46.3 a.u.
For `2'F-ANA at 2 4 5 8 9 10 11 12 13`, “mean fluorescence intensity” read 55.9 a.u.
`2'F-ANA at 2 3 4 9 10 11 12 15`: “mean fluorescence intensity” 267 a.u.
`2'F-ANA at 1 5 8 9 11 15`: “mean fluorescence intensity” 56.4 a.u.
For `2'F-ANA at 1 7 9 10 14`, “mean fluorescence intensity” read 44.4 a.u.

Series 2 — method: RNA Bind-n-Seq; form: RNA; matrix: in vitro; concentration: 200 nM; notes: whole 134-nt RNA, ends assumed; together with: 150 mM LiCl; relative to: input library; reading: higher = stronger binding; each molecule: 7-deaza-guanosine replaces G
Target: Fragile X messenger ribonucleoprotein 1, C-terminal low-complexity region (Fmr1, Mus musculus, UniProt P35922)
Shared flanks, not repeated: GGGAGUUCUACAGUCCGACGAUC … UGGAAUUCUCGGGUGUCAAGG
The log2 enrichment of `AAGUCCUGUGCUACACAUCGUAUGUACCGAAUCGGGCCCCGGGCCCCGGCCCCGGGAAAGUAUUAUGUUACGCCGUUCGGAUCUGCACUU` is reported as -2.28.
The log2 enrichment of `CACAGACAACACGCAAACACACAGACACAGAGGGAAGGGGUUGGGAUGGGGACAGGGUGCACAGCAGGGCGGGGUAGGACCCCAGCCCCU` is reported as 0.911.
`UCCUGUGCUACACAUCGUAUGUACCGAAUCAAACCCCCAAACCCCCCCAAACCCCCAAAAAAGUAUUAUGUUACGCCGUUCGGAUCUGCA` has a log2 enrichment of 0.638.
`UGUGCUACACAUCGUAUGUACCGAAUCGGGGUUUUUUUGGGGUUUUUUUGGGGUUUUUGGGGAAAGUAUUAUGUUACGCCGUUCGGAUCU` gave a log2 enrichment of 1.95.
For `UAACUUUAGAGGAGGAUCUGAUGGAUAUGGCAGUGGACGUGGAUUUGGGGAUGGCUAUGAUGGGUAUGGAGGAGGACCUGGAGGUGGCAA`, the log2 enrichment was 0.388.
For `CCUGUGCUACACAUCGUAUGUACCGAAUCGGGGAAAAAAAGGGGAAAGGGGUUUUUGGGGAAAGUAUUAUGUUACGCCGUUCGGAUCUGC`, the log2 enrichment was 0.445.
For `AUGCACUUGACAUAGUAGCAAAUUGGUUCUGAAUUAUGCAACUGUUUGCUAUUUAGUAAACUAGCAAAUGAUGCAUGUAUUUUGUUUUUC`, the log2 enrichment was -2.83.
`CACAGACAACACGCACCCACACAGACACAGAGGGAAGGGGUUGGGAUGGGGACAGGGUGCACAGCAGGGCGGGGUAUGACCCCAGCCCCU` has a log2 enrichment of 1.73.
For `AAGUCCUGUGCUACACAUCGUAUGUACCGAAUCGGGCCCCGGGGCCCCGGCCCCGGGAAAGUAUUAUGUUACGCCGUUCGGAUCUGCACU`, the log2 enrichment was -2.72.
With `AAGUCCUGUGCUACACAUCGUAUGUACCGAAUCGGUUUGGGGUUUGGGGUUUGGGGAAAGUAUUAUGUUACGCCGUUCGGAUCUGCACUU` the log2 enrichment was -2.05.
For `GCAGGAAGUAAAAACAAAUGGAAAUGCUUCGGAUAGUGGCAGGGGUGGGGGUUGCUAAGGAAAGGGUAAAAUGGGAGUGGGUAAAGAGUU`, the log2 enrichment was 1.71.

Series 3 — method: universal PBM; form: double-stranded DNA, one strand shown; matrix: in vitro; concentration: 600 nM; reading: higher = stronger binding
Target: Sal-like protein 4, full length isoform A (SALL4, Homo sapiens, UniProt Q9UJQ4, residues 1-1053)
UniProt Q9UJQ4, sequence (whole entry, looked up): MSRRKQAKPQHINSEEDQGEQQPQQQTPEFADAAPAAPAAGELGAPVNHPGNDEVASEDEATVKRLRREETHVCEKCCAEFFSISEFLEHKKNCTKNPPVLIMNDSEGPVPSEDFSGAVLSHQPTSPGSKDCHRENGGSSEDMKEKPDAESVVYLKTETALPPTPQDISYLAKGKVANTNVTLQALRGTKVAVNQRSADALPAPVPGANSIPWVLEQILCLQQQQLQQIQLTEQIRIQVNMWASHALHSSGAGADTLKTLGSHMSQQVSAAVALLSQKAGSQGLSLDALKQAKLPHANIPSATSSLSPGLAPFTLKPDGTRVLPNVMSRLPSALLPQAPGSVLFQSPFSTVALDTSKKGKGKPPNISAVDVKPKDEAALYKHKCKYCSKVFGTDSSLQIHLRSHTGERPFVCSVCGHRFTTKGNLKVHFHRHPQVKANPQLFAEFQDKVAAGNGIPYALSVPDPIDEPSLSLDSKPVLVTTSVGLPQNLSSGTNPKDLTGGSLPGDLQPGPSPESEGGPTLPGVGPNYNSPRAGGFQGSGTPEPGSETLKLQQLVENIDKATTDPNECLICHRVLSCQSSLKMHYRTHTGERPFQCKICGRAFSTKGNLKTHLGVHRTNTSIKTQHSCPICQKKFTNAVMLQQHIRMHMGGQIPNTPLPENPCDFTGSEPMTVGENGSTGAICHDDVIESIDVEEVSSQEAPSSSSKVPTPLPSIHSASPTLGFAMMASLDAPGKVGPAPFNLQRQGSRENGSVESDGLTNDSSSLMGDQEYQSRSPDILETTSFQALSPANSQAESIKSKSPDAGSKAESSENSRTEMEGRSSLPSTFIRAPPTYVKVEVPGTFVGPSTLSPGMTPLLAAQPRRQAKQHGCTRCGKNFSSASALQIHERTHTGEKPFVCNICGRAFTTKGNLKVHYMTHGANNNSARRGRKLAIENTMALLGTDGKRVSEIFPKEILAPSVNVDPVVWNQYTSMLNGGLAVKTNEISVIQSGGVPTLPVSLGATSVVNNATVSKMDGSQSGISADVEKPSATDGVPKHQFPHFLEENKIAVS
Notes: 8-mer, flanks averaged, mean of replicates
For `GCAAAGTA`, the E-score was 0.16.
With `AAAGTAGT` the E-score was 0.102.
For `CCTCGAAG`, the E-score was -0.122.
`GTATGGTA` has an E-score of 0.116.
`AAGCCATG` has an E-score of -0.0903.
For `CCATTACC`, the E-score was -0.159.
For `GATCGCTA`, the E-score was -0.0823.
`AACCAGGC` gave an E-score of -0.236.
With `CGAGCCGA` the E-score was -0.315.
For `GCCAATCA`, the E-score was -0.0962.
`AACCCGGT` has an E-score of -0.359.
`GTTAGCTA` gave an E-score of -0.0867.
`GACATAAC` gave an E-score of 0.239.
`GTTCATTA` has an E-score of 0.163.
For `ACTCTTAC`, the E-score was 0.194.
With `AAATGCGA` the E-score was 0.205.
The E-score of `CAAACACC` is reported as -0.0464.
`AAGCTATA` has an E-score of 0.23.
For `TGGCACAA`, the E-score was 0.025.
`CATGAGAA` gave an E-score of 0.17.
For `CGAACCCA`, the E-score was -0.233.

Mixed results
B1: KAT6A 1-85 (Homo sapiens, UniProt Q92794); sequence looked up; chain MVKLANPLYTEWILEAIKKVKKQKQRPSEERICNAVSSSHGLDRKTVLEQLELSVKDGTILKVSNKGLNSYKDPDNPGRIALPKP
For `B1 (KAT6A 1-85)`, binding read “binds” (itself; crystal structure).

Some of these lines once more (series 1):
`2'F-ANA at 1 2 3 5 6 7 8 9 12 13 14`: “mean fluorescence intensity” 55.5 a.u.
Under “mean fluorescence intensity”, `2'F-ANA at 3 6 8 10 11 12 14 15` is recorded as 323 a.u.
`2'F-ANA at 2 4 5 6 7 9 10 11 12 13`: “mean fluorescence intensity” 69.4 a.u.
`2'F-ANA at 1 3 6 7 8 10 12 13`: “mean fluorescence intensity” 149 a.u.
